Experimental data from different studies.
Every numbered part comes from another study and shows a few of its results, in no order.

Series 1
Target: Phosphate system positive regulatory protein PHO4, full length, GST-tagged (PHO4, Saccharomyces cerevisiae, UniProt P07270, residues 1-312)
Method: competition protein-binding microarray
Form: double-stranded DNA, one strand shown
Sample: in vitro
Concentration: 2 µM
Setting: whole 60-bp probe, lowest competitor level
Together with: Cbf1 competitor, 0.05 µM
Direction: higher = stronger binding
Residues (chain): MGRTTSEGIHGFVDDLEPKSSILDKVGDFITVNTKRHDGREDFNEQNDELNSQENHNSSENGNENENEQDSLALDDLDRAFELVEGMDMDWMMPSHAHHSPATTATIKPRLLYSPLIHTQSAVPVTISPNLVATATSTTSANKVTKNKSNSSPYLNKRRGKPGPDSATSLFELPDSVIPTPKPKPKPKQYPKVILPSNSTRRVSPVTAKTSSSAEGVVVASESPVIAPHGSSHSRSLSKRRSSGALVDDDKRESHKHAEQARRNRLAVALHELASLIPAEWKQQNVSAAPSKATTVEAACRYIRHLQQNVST
| Oligonucleotide | fluorescence intensity |
| --- | --- |
| AAAGTACACAGGGTCCATGTGCTACACATACGAAGAGTCTTGATTCGCTTGACGCTGCTG | 10600 a.u. |
| CTTTCCCGATCTTGTCACGAGACTTTAGCACATTTGGTCTTGATTCGCTTGACGCTGCTG | 7320 a.u. |
| GCCGCCATTCCCCATCACAATTTTGGGCAGGATAGGGTCTTGATTCGCTTGACGCTGCTG | 3540 a.u. |

Series 2
Target: Histone acetyltransferase KAT6A, winged helix 1, GST fusion (KAT6A, Homo sapiens, UniProt Q92794, residues 1-85)
Method: protein binding microarray
Form: double-stranded DNA, one strand shown
Sample: in vitro
Concentration: not given
Setting: 8-mer, flanks averaged, mean of 2 arrays, mostly near background
Relative to: not given
Direction: higher = stronger binding
Construct (chain): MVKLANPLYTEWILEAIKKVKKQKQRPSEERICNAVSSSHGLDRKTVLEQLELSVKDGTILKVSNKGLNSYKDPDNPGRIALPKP
| Oligonucleotide | E-score |
| --- | --- |
| ATCTCCGC | 0.088 |
| TATACCGA | 0.0639 |
| CGCTGGAC | 0.102 |
| AAAATCCG | 0.0923 |
| AAAGACAA | -0.0832 |

Series 3
Target: Sal-like protein 4, full length isoform A (SALL4, Homo sapiens, UniProt Q9UJQ4, residues 1-1053)
Chain of UniProt Q9UJQ4 (whole entry, looked up): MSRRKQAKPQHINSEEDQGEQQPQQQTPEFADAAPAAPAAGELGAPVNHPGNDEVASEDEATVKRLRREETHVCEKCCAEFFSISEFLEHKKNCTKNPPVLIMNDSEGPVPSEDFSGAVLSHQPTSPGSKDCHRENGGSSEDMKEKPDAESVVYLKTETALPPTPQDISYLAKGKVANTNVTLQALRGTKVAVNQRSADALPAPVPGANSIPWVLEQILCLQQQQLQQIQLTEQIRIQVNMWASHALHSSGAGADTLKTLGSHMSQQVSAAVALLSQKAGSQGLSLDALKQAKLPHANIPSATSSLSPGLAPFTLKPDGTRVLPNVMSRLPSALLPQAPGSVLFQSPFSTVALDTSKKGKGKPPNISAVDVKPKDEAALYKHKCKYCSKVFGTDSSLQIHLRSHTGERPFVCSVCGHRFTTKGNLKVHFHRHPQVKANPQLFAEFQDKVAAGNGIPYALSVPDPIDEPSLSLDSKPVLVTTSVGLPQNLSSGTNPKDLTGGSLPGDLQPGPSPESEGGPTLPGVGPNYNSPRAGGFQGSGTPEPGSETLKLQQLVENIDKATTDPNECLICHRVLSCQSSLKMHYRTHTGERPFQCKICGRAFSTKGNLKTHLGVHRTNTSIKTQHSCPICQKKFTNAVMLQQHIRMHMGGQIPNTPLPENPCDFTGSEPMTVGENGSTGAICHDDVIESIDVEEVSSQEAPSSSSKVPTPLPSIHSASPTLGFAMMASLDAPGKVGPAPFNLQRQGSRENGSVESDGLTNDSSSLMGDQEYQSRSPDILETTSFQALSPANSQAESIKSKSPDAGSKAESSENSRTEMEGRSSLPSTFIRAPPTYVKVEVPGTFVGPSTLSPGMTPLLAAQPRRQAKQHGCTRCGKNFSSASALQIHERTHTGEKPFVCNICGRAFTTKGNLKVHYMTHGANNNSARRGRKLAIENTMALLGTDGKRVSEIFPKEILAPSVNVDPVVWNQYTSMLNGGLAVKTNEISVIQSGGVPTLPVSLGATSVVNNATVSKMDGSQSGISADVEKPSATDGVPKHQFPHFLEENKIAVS
Method: universal PBM
Form: double-stranded DNA, one strand shown
Sample: in vitro
Concentration: 600 nM
Setting: 8-mer, flanks averaged, mean of replicates
Direction: higher = stronger binding
| Oligonucleotide | E-score |
| --- | --- |
| CTGGCCAG | -0.235 |
| CATTATGC | 0.229 |
| ATACCGTA | 0.00282 |
| CTAGGGTA | -0.12 |

Mixed results
| Molecule | target | test | system | setting | scale | endpoint | result |
| --- | --- | --- | --- | --- | --- | --- | --- |
| PhoQ, residues 284 288 289 292 302 303 HSYLQF | PhoP, residues 12 14 15 18 19 NIMAP (Escherichia coli, UniProt P23836) | Sort-seq, measured: YFP reporter | E. coli | PhoQ-PhoP variant library, together with: 10 µM Mg2+ | relative to: high Mg2+ state, higher = stronger signaling | fold induction | 1.62 |

For quick reference, copied from above (mixed results):
| Molecule | target | test | system | setting | scale | endpoint | result |
| --- | --- | --- | --- | --- | --- | --- | --- |
| PhoQ, residues 284 288 289 292 302 303 HSYLQF | PhoP, residues 12 14 15 18 19 NIMAP (Escherichia coli, UniProt P23836) | Sort-seq, measured: YFP reporter | E. coli | PhoQ-PhoP variant library, together with: 10 µM Mg2+ | relative to: high Mg2+ state, higher = stronger signaling | fold induction | 1.62 |
